Results from different studies.
Parts stem from different laboratories: compare values within a part only. Changes are numbered by the printed parent chain.

Series 1 — technique: DHFR PCA, deep sequencing; matrix: yeast; added: (+)-ABA 0.032 µM; relative to: wild-type fitted maximum; direction: higher = stronger binding
Target: ABI1, truncated, D143A, DHFR fusion (Arabidopsis thaliana)
Setting: methotrexate growth selection, single substitutions
Parent: PYL1, truncated, DHFR fusion (Arabidopsis thaliana); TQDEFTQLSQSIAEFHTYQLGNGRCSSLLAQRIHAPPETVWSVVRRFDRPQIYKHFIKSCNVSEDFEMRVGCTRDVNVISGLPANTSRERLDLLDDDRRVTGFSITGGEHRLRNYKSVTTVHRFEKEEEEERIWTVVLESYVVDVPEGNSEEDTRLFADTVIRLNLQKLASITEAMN; partner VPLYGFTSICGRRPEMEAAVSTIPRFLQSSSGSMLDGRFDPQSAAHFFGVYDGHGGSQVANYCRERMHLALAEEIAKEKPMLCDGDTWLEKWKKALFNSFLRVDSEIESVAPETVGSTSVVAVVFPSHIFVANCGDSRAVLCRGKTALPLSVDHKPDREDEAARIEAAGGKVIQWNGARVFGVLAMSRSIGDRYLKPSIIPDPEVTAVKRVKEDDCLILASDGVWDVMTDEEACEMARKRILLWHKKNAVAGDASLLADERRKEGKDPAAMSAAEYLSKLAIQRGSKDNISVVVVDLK
Substitution	relative binding score [%]
D144C	-4.98
G23Y	1.14
R99F	70.4
F15N	4.87
N77M	38
E127F	27.3
C72N	3.69
L91V	4.02
T39S	3.47
L156I	7.88
D75Q	29.5
S27H	8.71
I52R	3.98
F157I	-1.17
G23R	18.2
I133V	51.3
T135A	-4.63

Series 2 — technique: protein-binding microarray; molecule type: double-stranded DNA, one strand shown; matrix: in vitro; concentration: 2540 nM top; setting: 60-bp whole probe; added: salmon DNA 0.4 mg/ml; relative to: random background probes; direction: higher = stronger binding; shared flanks, not repeated: GCCTAGCAC … GTCTTGATTCGCTTGACGCTGCTG
Target: Interferon regulatory factor 3, full length, phosphomimetic (IRF3, Homo sapiens, UniProt Q14653, residues 1-427, S386D/S396D/S398D/S402D/T404D/S405D)
Residues (chain): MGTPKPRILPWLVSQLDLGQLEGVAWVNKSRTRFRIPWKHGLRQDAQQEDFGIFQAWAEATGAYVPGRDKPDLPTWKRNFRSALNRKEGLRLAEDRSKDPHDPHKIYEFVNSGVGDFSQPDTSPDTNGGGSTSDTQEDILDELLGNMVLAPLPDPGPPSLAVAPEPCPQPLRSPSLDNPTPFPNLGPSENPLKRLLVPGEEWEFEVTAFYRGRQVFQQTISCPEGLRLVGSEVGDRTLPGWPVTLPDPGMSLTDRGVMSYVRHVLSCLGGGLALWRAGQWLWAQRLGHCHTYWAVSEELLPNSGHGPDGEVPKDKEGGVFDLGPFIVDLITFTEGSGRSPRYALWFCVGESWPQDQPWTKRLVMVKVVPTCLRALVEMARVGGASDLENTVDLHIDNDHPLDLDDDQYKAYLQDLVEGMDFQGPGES
Sequence	fitted relative affinity
GTTTGGGTCTTGTCTGGAGTCGTGCTA	0.122 z-score
TGGTAATTCTTTGCTCATTTTGTGCTA	0.0459 z-score
GGTCTTCTGGGCTGTTTGGTTGTGCTA	-0.264 z-score
CTAGGACTGCTTTTCCTTTAGTGCTAG	0.877 z-score
TCATCACTCTGTCCCTCACTGTGCTAG	0.0538 z-score
TTAGGTTTCGGTTTCGGATAGTGCTAG	12.3 z-score
TTAGGTCTCCTTCTCCTTAAGTGCTAG	4.53 z-score
TTAGGTTTCCTACTGCCTTAGTGCTAG	4.85 z-score
TTAGACTTCGGGACTGGATTAGTGCTA	-0.565 z-score
TTAGGTCTCGGTAACGGTTAGTGCTAG	-0.2 z-score
TTAGGCTTCCTACTGCTTTAGTGCTAG	-0.458 z-score
TATGTTCCCTATTTAAGGCTGTGCTAG	3.21 z-score
TTAGGTTTAGGACTGGGTTAGTGCTAG	-0.444 z-score
TTAGGTATCCTCATCCTTTAGTGCTAG	1.83 z-score
ATGTCTTCCCCTCTCATTCCGTGCTAG	0.983 z-score
GACGGTGTCGGTCTCGGGACGTGCTAG	2.77 z-score
GACCATCTCAGTTTCGAGACGTGCTAG	3.05 z-score
GATGATCTCAGTCTCGAGACGTGCTAG	0.27 z-score

Series 3 — technique: RNA Bind-n-Seq; molecule type: RNA; matrix: in vitro; concentration: 200 nM; setting: whole 134-nt RNA, ends assumed; added: 150 mM KCl; relative to: input library; direction: higher = stronger binding
Target: Ras GTPase-activating protein-binding protein 1, full length (G3BP1, Homo sapiens, UniProt Q13283)
UniProt Q13283, sequence (whole entry, looked up): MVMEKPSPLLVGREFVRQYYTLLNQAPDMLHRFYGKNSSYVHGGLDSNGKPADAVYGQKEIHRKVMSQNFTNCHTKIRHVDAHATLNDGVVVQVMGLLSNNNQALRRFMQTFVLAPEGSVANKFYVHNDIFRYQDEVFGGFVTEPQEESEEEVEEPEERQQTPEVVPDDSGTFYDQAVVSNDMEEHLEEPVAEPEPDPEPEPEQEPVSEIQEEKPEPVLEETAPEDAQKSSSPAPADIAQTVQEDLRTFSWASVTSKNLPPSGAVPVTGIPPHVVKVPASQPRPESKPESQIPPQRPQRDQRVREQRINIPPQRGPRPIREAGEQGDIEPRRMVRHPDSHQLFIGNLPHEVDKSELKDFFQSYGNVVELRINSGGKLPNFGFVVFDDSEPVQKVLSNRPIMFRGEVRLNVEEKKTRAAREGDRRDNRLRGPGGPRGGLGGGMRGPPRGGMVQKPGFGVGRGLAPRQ
Shared flanks, not repeated: GGGAGUUCUACAGUCCGACGAUC … UGGAAUUCUCGGGUGUCAAGG
Sequence	log2 enrichment
CUCAAGUCCUGUGCUACACAUCGUAUGUACCGAAUCGGUUGGUUGGGUUGGGGAAAGUAUUAUGUUACGCCGUUCGGAUCUGCACUUCCA	-0.195
UCCUGUGCUACACAUCGUAUGUACCGAAUCGGGGAAAAAAGGAAAAAAGGAAAAAAGGGAAAGUAUUAUGUUACGCCGUUCGGAUCUGCA	-0.309
CCUCAAGUCCUGUGCUACACAUCGUAUGUACCGAAUCGGGGCGGCGGGGCGGGAAAGUAUUAUGUUACGCCGUUCGGAUCUGCACUUCCA	0.821
AACUAAUACUCUUAAAUGGUCUUUCAGUAUAGUGGUUCUUACGUAGUUUAACAUAGCUAUAAAUUGAGUUUAACAAUUUAUAAACUCAAG	-1.56
GCAGCAAGUAAAAACAAAUGGAAAUGCUUCGGAUAGUGGCAGGGGUGGGGGUUGCUAAGGAAAGGGUGGGAUGGGAGUGGGUAAAGAGUU	0.674
UGGGAGGUGGAUUUUGUUUAUUUUUUUAGCUCAUUUCCAGGGGUGGGAAUUUUUUUUUAAUAUGUGUCAUGAAUACAGUUGUUUUUGAAA	0.0472
UGGGAGGUGGAUUUUGUUUAUUUUUUUAGCUCAUUUCCAUGGGUGGGAAUUUUUUUUUAAUAUGUGUCAUGAAUAAAGUUGUUUUUGAAA	-0.362
UCCCCCCUAUUGGAAGUAAAGGGGAACAUAGAACUGAAGAGACCUCUGAUUAAGGCCCCUUCCCAGCUGCCUCUCUCAGGAAGCAGACUC	-0.454
GCAGGAAGUAAAAACAAAUGGAAAUGCUUCGGAUAGUGCCAGGGGUGGGGGUUGCUAAGGAAAGGGUGGGAUGGGAGUGGGUAAAGAGUU	1.05
UGGGAGGUGGAUUUUGUUUAUUUUUUUAGCUCAUUUCCAGGGUUGGGAAUUUUUUUUUAAUAUGUGUCAUGAAUAAAGUUGUUUUUGAAA	-0.511

Series 4 — technique: protein binding microarray; molecule type: double-stranded DNA, one strand shown; matrix: in vitro; concentration: not given; relative to: not given; direction: higher = stronger binding
Target: Histone acetyltransferase KAT6A, winged helix 1, GST fusion (KAT6A, Homo sapiens, UniProt Q92794, residues 1-85)
Setting: 8-mer, flanks averaged, mean of 2 arrays, mostly near background
Residues (chain): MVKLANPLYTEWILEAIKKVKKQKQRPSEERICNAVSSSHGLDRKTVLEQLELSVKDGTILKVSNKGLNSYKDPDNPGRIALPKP
Sequence	E-score
CCTTATTA	-0.159
CCTATAGA	-0.0436
ACCCGCAG	0.256
TCCGAAAA	-0.0881
CATTGAGC	0.0149
AAGCACAT	-0.0626
ACCAATAG	0.00808
AAAGAGAC	-0.232
ACAACGAT	0.0264
CGTTACAC	0.174
ATAACGCG	0.291
GAGTAATC	-0.116
ACGTGCAC	-0.0162
CTAACTTC	-0.118
ACATTGAT	0.00499
ACTTTCAT	-0.108
ATCTGAAT	-0.279
AACTCGCT	-0.0168
CCTACTGA	-0.282
CTTTTGGA	-0.0718
AATGTTAG	-0.0231
GAATGACA	-0.209
GGTCTACA	-0.000965
CACTAGGC	0.0365
CACTTAGC	-0.0471

Series 5 — target: CCNA1, cyclin fold, Cln2 fusion (human); technique: yeast growth competition, sequencing; matrix: yeast; setting: weak parent motif; relative to: not given; direction: higher = stronger binding
Parent: E2F2 docking peptide (human); LPAKRKLDLEGIG; partner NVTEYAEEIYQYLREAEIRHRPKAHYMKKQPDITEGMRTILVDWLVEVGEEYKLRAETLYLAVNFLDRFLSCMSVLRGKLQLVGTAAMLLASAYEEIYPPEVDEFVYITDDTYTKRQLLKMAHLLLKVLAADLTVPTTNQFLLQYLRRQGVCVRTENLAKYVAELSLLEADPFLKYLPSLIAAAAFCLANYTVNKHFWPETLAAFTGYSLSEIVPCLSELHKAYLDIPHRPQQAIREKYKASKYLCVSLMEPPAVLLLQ
Substitution	normalised enrichment score
LPAKRKLDLEGAG [I12A]	0.393
LPAKAKLDLEGIG [R5A]	0.394
LPAKRKLDLEGIA [G13A]	0.722
LPAKRKADLEGIG [L7A]	0.346
LPAKRKLDLAGIG [E10A]	0.329
LPAKRKLDFEGIG [L9F]	1.62
LPAKRALDLEGIG [K6A]	0.222

For quick reference, copied from above (series 5):
Substitution	normalised enrichment score
LPAKAKLDLEGIG [R5A]	0.394
LPAKRKLDFEGIG [L9F]	1.62
LPAKRKADLEGIG [L7A]	0.346
LPAKRKLDLEGIA [G13A]	0.722
LPAKRALDLEGIG [K6A]	0.222
LPAKRKLDLEGAG [I12A]	0.393
LPAKRKLDLAGIG [E10A]	0.329
